Published values collected from several papers.
Each line is one published result; not all experiments were run side by side.
Target: Serine/threonine-protein kinase tousled-like 1 (TLK1, Homo sapiens, UniProt Q9UKI8)

SMILES	assay	test system	setting	quantity	result
O=C(Cc1ccc(OCc2ccccc2)cc1)NC1(C(=O)O)CCN(C(=O)c2ccc(-c3cccc(Cl)c3)cc2)CC1	enzyme activity, inhibitor		10 µM	activity vs control	99%
CNC(=O)C1CCN(c2cc(C)c(F)cc2NC(=O)c2ccc(-c3cc(O)ccc3C)c(C)c2)CC1	binding, competition with immobilised ligand		1 µM	remaining binding	76%
CCn1cc(C(=O)O)c(=O)c2c(N)c(F)c(NC3CCCCC3)cc21	kinase activity		0.1 µM, together with: ATP at Km	inhibition	-9.7%
COc1c(Cl)cccc1Nc1c(-c2ccncc2C#C[C@@]2(C)CCCN2C(=O)/C=C/CN(C)C)[nH]c2c1C(=O)NCC2	cell-free assay, competition with immobilised ligand		3 µM	remaining binding	59%
CN1CCN(Cc2ccc(-c3ccc(CO[C@H]4CCC[C@@H]4NC(=O)c4cc(-c5cnn(C)c5)cnc4N)cc3)cc2)CC1	enzyme activity, inhibitor		0.1 µM	inhibition	0%
Cc1ccc(-c2c(/C=C(\C#N)C(=O)NC(C)C)n(CCCO)c3ncnc(N)c23)cc1	cell-free assay, competition with immobilised ligand		1 µM	remaining binding	97%
Cc1ccc(C(=O)Nc2ccc(CN3CCN(C)CC3)c(C(F)(F)F)c2)cc1C#Cc1cnc2cccnn12	target engagement, NanoBRET	human cells		upper asymptote	218
NC(=O)C[C@H]1CCc2sc3ncnc(O[C@H]4CC[C@H](N5CCOCC5)CC4)c3c21	enzyme activity, inhibitor		10 µM	inhibition	-3%
CN1CC[C@@H](COc2cnc(C#N)cc2-c2ccn3nc(NC(=O)C4CC4)cc3c2)C1	enzyme activity, inhibitor		1 µM	inhibition	9%
CC(C)=CC1OC(C)(C)C2C=C3C(=O)C(Cl)=CC(O)C3C3C(O)C4OC4C(=O)C132 (stereo not shown)	cell-free assay, competition with immobilised ligand		10 µM	remaining binding	75%
CNC(=O)C[C@H](Cc1ccc(C#N)cc1)NC(=O)c1cc(-c2ccc(CN[C@H](C)c3ccc(C)cc3)o2)ccc1Cl	enzyme activity, inhibitor		1 µM	activity vs control	95%
COc1cc(Nc2nccc(-c3cnn4nc(OC)ccc34)n2)cc(C(F)(F)F)c1	binding, competition with immobilised ligand		1 µM	remaining binding	90%
CCN1CCN(Cc2ccc(C(=O)Nc3ccc(C)c(NCc4cnc5[nH]ccc5c4OC)c3)cc2C(F)(F)F)CC1	binding, competition with immobilised ligand		1 µM	remaining binding	94%

Repeated from above:
SMILES	assay	test system	setting	quantity	result
O=C(Cc1ccc(OCc2ccccc2)cc1)NC1(C(=O)O)CCN(C(=O)c2ccc(-c3cccc(Cl)c3)cc2)CC1	enzyme activity, inhibitor		10 µM	activity vs control	99%
